# Published values pooled from the literature.
# Numbered parts are unrelated; each lists some results of a single study.

# Sample 1
# Target: RNA binding protein fox-1 homolog 2, RRM domain, GST-SBP tag (RBFOX2, Homo sapiens, UniProt O43251-10, residues 100-194)
# Technique: RNA Bind-n-Seq
# Molecule type: RNA
# Sample: in vitro
# Tested at: 365 nM
# Setting: natural RNA segment, single round, ends assumed
# Relative to: no-protein control
# Direction: higher = stronger binding
# Constant ends, left off below: GGGAGUUCUACAGUCCGACGAUC … UGGAAUUCUCGGGUGCCAA
# Residues (chain): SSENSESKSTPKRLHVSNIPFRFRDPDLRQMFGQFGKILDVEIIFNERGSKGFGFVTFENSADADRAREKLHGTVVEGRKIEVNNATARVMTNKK
Strand,RBNS enrichment (R)
UCAUCAUUCAUUCAUUCACCUAACUUUCAUUAAAUAGCUGCACCAUCCCAGGCCCUGUGCGGAGCAUCGGGAAUACAAAGAUGAGAUAAAACAUUGUCCCUGCCCCCGGG,0.448
GCCAAGGGUGGGGUUUCACCUGCGAACAUCAGACUGACUUGCUGGCGUCAAGAGCAGUUGACUCACUGAUGAAGGCCCUGGUGAGGAGAAAGCACUCUGUUCUUCGCCUA,0.452
AGCACUGACCUGGGAGGCCCCCAAGUAAGGCCAAGAAGUCUCUGCUACUCUAAUCUUUUACGUAUUAAAUGCACUAGGCUAGUAGCCCUUGCCUUUCCUUUCCUGAAACU,0.312
UGAUUCAGAGUUAAAAAGAAGACUAACUUUUCAAGCAAAUGCAUCUGUAAAGAUGCUUUAGAUUAGACUGUCAUGUCUCAGUGUCUAUCUGUAUAUAUUAUUUGAUAUUC,0.301
AAAAUUCACUGGGGACUUUUCCCACCACACAUGGAAAUCUGUCCACUCGGAAUACCUCUGUUUUCCAUUUCAAAUUGUAGGGGGAGGGGAUGGAACACUUCCAGUGAUGG,0.47
UCAUCCUCUGGUAGGGCUGCCAGAAGGCCCCCAGCUCCUACCCACUCCCCUUGAGGCUGCUGCCUGCUUGGCCAGCCUCUGUCCAGAAAGGACCAGAGAAAGCCAGGCUG,0.536
CUACCGCCUGUGUGACUGAGCUGCCUCCUGAGGCAGUGCCACAGCCGGGACUGGAGUCCCUGGGCCCUCAACACUGGAUGCAAAUGUGUUACACUGGAGCCUGCUGCAGG,2.75
UCAGAGACUUUGGGAAGAGAAAUUAAAACUGAAAACAAAGGAGAUAACACCCAUACUUAAGCCUGCACUUGUUUGUAGUUCAUCGCCCUUGGCCUGAGAGGCAGCCAAGG,0.96
GGGCCUCGAGCUGUCAGUCAUCAUGGUGCUAUCCUCUGAACCCCUCAGCUGCCACUGCAACAGUGGGCUUAAGGGUGUCUGAGCAGGAGAGGAAAGAUAAGCUCUUCGUG,0.272
GCUCUUCAGUGAGCCUAAGUCUUGGGAACUCAGCAGGCGGCACCUUCUCACACAGCAAGUCCGAGCUGUGAACUGUAGUUCGUGAGAGAAAUCAGCCUGAGGCUGUCUUC,0.277
GUCUCAUUAAAAAUUAGUUUCCAGUUAGGCAGAUGAAUAACACUAUUAAAAAUGCACCCAGUUUUGUAGUCACUUGACUUUUUUUUUUUAUUUAAAUGAAAUUUAAUUUG,0.991
CAGGUCUCAGGAGUGCCAUCCCCGGGCUCAGCUCCAGUUCCCUGGGCUCAUGCUACUAGUGCUCUGGGCCCAGUGACCAUGCACCUUCACCCCAGGCAGGCCCUGUGUAC,0.305

# Sample 2
# Target: Interferon regulatory factor 5, full length, phosphomimetic (IRF5, Homo sapiens, UniProt Q13568-2, residues 1-514, K96S/S451D/S453D/S456D/S462D)
# Technique: protein-binding microarray
# Molecule type: double-stranded DNA, one strand shown
# Sample: in vitro
# Tested at: 250 nM
# Setting: 60-bp whole probe
# Added: salmon DNA 0.4 mg/ml
# Relative to: random background probes
# Direction: higher = stronger binding
# Constant ends, left off below: GCCTAGCAC … GTCTTGATTCGCTTGACGCTGCTG
Strand,log fluorescence
TCCCAAGTCTTGTTTTACAATGTGCTA,-0.0688 z-score
TCATTTCTCAACCATTTTACTGTGCTA,1.47 z-score
AGTTTATTTATTTTTACATTGTGCTAG,1.2 z-score
TGTTGTCTTAGATTCCTTTGGTGCTAG,0.424 z-score
TTAGGTACCGACTTTCGGTTAGTGCTA,9.77 z-score
TTAGGTCTCCTTTGCCTTTAGTGCTAG,-0.26 z-score
GAGGGTTTCGGTTTCGGGACGTGCTAG,9.89 z-score
TTAGGTTTCGACTATCGGTTGGTGCTA,8.98 z-score
TTAGGTTTCGGTATCGTTTAGTGCTAG,10.4 z-score
TTAGGTCTCGGACTGGGCTAGTGCTAG,-0.437 z-score
ATCGATTTCTTCCCTGTGAAAGTGCTA,1.8 z-score
GACGTTATCCTTATCCTGACGTGCTAG,0.117 z-score
TCAAGGGTCTGTTTGGGACTGTGCTAG,-0.331 z-score
TACGATCTCAGTATCGAGACGTGCTAG,1.94 z-score
GACGATCTCAGACTGAAGACGTGCTAG,-0.148 z-score
GACGGTTTCGGGTATCGGAACGTGCTA,8.81 z-score
TCACTTCTCCCTTTCAGACTGTGCTAG,0.911 z-score
GACGGACAGCTTCTCCTGACGTGCTAG,-0.582 z-score
TCAGTTTCCTTCCTCTTACTGTGCTAG,2.15 z-score
CCCAATCTCTCTTCACATATGTGCTAG,0.38 z-score
GACGGGATCGGACTGGGGACGTGCTAG,-0.372 z-score
GTCGGTCTCCTTATCCTGACGTGCTAG,0.0624 z-score
TTAGGCATCCTTTTCCTTTAGTGCTAG,0.185 z-score
TTAGGACTGGTTTTCGGTTAGTGCTAG,6.64 z-score
TTCGGACTGGGTTTCGGTTAGTGCTAG,8.04 z-score

# Sample 3
# Target: Histone acetyltransferase KAT6A, winged helix 2, GST fusion (KAT6A, Homo sapiens, UniProt Q92794, residues 85-181)
# Technique: protein binding microarray
# Molecule type: double-stranded DNA, one strand shown
# Sample: in vitro
# Tested at: not given
# Setting: 8-mer, flanks averaged, mean of 2 arrays, mostly near background
# Relative to: not given
# Direction: higher = stronger binding
# Target sequence (chain): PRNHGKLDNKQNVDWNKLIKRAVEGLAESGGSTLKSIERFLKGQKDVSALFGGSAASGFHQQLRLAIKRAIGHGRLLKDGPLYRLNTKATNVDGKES
Strand,E-score
ACATTTAG,-0.168
GACCTGCA,-0.00434
CTACCATC,-0.114
CGGGGACG,-0.0142
GCCACGCA,0.0851
CATTCTAA,0.051
CAAGCTAG,0.106
ACCTGCAA,0.0108
TGATAAAA,-0.0164
TAGACGCA,-0.0841
AGCCTTGA,-0.027
CACCGCTA,-0.0113
ACACGCAT,0.0469
ACAGCTTC,-0.134
GCTTTGGA,-0.0196
CAAGCACG,0.0993

# Sample 4
# Target: Hepatocyte nuclear factor 3-alpha (Foxa1, Mus musculus, UniProt P35582, residues 1-468, full length assumed)
# Sequence of UniProt P35582 (whole entry, looked up): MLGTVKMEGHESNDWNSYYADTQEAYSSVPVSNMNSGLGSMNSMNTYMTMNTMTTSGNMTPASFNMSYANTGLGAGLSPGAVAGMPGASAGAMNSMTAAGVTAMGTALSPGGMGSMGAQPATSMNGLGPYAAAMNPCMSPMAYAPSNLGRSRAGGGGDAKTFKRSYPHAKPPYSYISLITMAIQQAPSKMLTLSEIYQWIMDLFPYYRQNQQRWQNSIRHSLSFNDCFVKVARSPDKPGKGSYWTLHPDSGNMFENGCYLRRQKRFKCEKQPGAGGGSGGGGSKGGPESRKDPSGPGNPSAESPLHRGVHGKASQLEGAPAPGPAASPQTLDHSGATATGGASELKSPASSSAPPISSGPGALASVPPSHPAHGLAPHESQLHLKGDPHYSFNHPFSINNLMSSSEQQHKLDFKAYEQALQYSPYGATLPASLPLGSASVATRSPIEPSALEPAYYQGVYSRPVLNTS
# Technique: EMSA with sequencing
# Molecule type: double-stranded DNA, one strand shown
# Sample: in vitro
# Tested at: 10 and 20 nM
# Setting: whole designed probe, mean of two concentrations, ends assumed
# Relative to: negative control set to 0
# Direction: higher = stronger binding
# Constant ends, left off below: GTGAGCGGTGCCCATTGATGGGGAAC … TTTCACTGGGATCGTGGGGAC
Strand,normalised bound fraction [ratio]
ATCTTCCCCCTCTTCCTTGCCCCACCAGCTCACCTTCCCGGGTTATTTGCAGATAGGAAAATAAATAAAGCCGGCATTCGTTAACCCTCTTCTGGCGCAAACTGCTGTTTGCTCTGCATGAATCATGGTCCTTACGCGAGGCGTGGCTCCGGGAGAGCAAAGCACCGTGTCAGGCGCATGATCCGGGCTCGCC,0.348
ATCTTCCCCCTCTTCCTTGCCCCACCAGCTCACCTTCCCGGGTTATTTGCAGATAGGAAAATAAATAAAGCCGGCATTCGTTAACGCAGTTCTGGCGCAAACTGCTGTTTGCTCTGCATCTAACATGGTCCTTACGCGAGGCGTGGCTCCGGGAGAGCAAAGCACCGTGTCAGGCGCATGATCCGGGGTGGCC,0.364
AAAACCTTCCTATCCCATGGTTATAAAGGAATCACTCATATTTTCTAAATGTGCTTTTTATATTTGTTTTAAACATTTAAAATCTTTGATCCAAGAGGACTTTTTCTTGGTATGTAAAGTAAGGTACTAATTTATCAAGTGGCTGTCAGTCGTCCTAACACCTTTTATCAAAAAGTCCCCCTTTATGGTTAGG,0.242
ACAATGTGTTTTCCAAAGAGATCTAAATTTAACAAAGTTGTAGGTGAGGAAGCCCTGCTTTTGCATTATAATTTAATTAATTAGCATTTATTTTTGTTTACTTTGAATGTCTTTGCATGCTCATATGAAAATACATACATTTACAATAATTCAGATGTAGACCTGTCAGATATCAACTCCTCAGGTAGAATGA,0.452
AATGGAATAATTCCTTTACAGGATCAGAACACGTAGGAAGCCAAATTAATAATTGAAAGCTTGTTTGTTTAGCAAAGAACCAGAGCATAAGAAAGTAAATAACCTTAAGGGATATTTCAAGGCCATGAGTACAGCCTAACAGAGTGATGGAAGCAGGGACTCTTGCAGTTAAGCCACTGGAATTTGAATTCCA,0.507
TTATTTTGATAACATCTCCTTTTCATTAGAACCTTCCTCTCTAGTCCCTCTATTTCAATCTTTAATGTAGTGCTTTGTGCTGTTTCATGCCTTTGTTTACATTCTTACACACACACACCCCATTCCTGGAATTTCCCTCCTAGTCGTCTCTGCCTGAAAAAAAACCCTACTAACCCTTTGAGGCCAGCTCAGA,0.468
TAATAACGGCAATTCAGCACCCTCTTTCAAAGTAATATCACTGCAAATGGATCAGATAATAAAATGGAGCACTATAGCAATTCTGTGCACAAAATAAATAAGAAACCTGAACGCCCTGACAATGGTTCTACAATGAACACCAGAAAATTCCAAGCTAAACCACTGGTTCAACCCACTTACTGGGTTAAAGAGA,0.304
CTCCACAATATTGCAATAAACTAAATATTATAATATGTTGGCTTTGATTATTCTGTGTCCTAAAATGTGCTTATTTTCTATTCTTTTTTGTCCTTGTTTACATTTAAAATTATACAACTGTCAGTGTTGATTTATAAGATAGAATGTACATATAAACTGGATCTCTGTCTCAGAGTAAGGAGGTGGAAAGAAA,0.346
